Published values of several laboratories.
Every numbered part comes from another study and shows a few of its results, in no order. Values joined by “and” are separate records of one study, mostly repeats; a detail may differ.
Chain of UniProt P41240 (whole entry, looked up): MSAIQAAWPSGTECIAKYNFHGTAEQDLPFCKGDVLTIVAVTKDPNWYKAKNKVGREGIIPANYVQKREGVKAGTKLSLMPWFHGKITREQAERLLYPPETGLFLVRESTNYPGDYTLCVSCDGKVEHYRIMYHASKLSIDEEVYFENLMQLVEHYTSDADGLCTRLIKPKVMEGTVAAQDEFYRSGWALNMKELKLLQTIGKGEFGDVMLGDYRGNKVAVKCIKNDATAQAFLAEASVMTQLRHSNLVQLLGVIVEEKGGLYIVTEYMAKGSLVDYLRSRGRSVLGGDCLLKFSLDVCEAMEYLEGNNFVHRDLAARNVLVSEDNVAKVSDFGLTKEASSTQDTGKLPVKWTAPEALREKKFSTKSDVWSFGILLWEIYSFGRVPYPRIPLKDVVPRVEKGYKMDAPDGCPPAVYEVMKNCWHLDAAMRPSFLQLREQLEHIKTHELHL
Chain of UniProt Q9UIK4 (whole entry, looked up): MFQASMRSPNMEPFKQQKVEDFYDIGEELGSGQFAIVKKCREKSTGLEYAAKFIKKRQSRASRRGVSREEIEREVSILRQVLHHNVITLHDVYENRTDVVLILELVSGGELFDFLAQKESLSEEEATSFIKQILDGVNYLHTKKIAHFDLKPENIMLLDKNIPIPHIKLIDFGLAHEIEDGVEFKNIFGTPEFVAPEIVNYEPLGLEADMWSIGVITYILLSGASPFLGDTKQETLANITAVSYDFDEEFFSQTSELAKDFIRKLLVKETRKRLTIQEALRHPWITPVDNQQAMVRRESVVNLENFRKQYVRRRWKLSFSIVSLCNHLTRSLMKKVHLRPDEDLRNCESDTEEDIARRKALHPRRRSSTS
Chain of UniProt P09769 (whole entry, looked up): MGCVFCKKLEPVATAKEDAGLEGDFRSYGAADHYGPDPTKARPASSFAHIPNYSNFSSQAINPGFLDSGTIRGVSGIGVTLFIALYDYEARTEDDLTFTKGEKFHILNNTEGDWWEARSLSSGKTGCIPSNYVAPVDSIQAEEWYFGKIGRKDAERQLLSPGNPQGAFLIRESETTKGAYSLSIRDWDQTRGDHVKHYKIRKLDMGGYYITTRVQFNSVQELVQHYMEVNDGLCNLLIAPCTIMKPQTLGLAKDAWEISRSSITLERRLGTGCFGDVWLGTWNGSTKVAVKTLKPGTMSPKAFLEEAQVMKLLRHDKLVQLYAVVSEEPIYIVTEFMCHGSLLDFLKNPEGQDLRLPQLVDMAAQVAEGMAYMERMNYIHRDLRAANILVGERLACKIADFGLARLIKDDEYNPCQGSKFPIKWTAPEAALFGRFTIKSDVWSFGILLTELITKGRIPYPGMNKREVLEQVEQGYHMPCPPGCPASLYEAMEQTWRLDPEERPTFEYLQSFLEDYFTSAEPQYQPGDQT
Chain of UniProt P0C264 (whole entry, looked up): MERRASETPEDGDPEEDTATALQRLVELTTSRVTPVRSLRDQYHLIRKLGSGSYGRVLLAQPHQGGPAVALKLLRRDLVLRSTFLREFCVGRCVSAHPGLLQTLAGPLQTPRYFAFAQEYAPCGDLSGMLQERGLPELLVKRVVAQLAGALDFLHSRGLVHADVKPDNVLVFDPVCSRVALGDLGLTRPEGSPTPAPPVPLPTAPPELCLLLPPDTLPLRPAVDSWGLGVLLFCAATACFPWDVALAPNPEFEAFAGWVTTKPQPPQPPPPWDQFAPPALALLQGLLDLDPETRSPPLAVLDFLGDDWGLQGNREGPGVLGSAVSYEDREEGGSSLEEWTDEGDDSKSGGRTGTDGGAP

Block 1
Target: DNA polymerase theta, ATPase domain (POLQ, Homo sapiens, UniProt O75417)
Chain of UniProt O75417 (whole entry, unmodified, looked up): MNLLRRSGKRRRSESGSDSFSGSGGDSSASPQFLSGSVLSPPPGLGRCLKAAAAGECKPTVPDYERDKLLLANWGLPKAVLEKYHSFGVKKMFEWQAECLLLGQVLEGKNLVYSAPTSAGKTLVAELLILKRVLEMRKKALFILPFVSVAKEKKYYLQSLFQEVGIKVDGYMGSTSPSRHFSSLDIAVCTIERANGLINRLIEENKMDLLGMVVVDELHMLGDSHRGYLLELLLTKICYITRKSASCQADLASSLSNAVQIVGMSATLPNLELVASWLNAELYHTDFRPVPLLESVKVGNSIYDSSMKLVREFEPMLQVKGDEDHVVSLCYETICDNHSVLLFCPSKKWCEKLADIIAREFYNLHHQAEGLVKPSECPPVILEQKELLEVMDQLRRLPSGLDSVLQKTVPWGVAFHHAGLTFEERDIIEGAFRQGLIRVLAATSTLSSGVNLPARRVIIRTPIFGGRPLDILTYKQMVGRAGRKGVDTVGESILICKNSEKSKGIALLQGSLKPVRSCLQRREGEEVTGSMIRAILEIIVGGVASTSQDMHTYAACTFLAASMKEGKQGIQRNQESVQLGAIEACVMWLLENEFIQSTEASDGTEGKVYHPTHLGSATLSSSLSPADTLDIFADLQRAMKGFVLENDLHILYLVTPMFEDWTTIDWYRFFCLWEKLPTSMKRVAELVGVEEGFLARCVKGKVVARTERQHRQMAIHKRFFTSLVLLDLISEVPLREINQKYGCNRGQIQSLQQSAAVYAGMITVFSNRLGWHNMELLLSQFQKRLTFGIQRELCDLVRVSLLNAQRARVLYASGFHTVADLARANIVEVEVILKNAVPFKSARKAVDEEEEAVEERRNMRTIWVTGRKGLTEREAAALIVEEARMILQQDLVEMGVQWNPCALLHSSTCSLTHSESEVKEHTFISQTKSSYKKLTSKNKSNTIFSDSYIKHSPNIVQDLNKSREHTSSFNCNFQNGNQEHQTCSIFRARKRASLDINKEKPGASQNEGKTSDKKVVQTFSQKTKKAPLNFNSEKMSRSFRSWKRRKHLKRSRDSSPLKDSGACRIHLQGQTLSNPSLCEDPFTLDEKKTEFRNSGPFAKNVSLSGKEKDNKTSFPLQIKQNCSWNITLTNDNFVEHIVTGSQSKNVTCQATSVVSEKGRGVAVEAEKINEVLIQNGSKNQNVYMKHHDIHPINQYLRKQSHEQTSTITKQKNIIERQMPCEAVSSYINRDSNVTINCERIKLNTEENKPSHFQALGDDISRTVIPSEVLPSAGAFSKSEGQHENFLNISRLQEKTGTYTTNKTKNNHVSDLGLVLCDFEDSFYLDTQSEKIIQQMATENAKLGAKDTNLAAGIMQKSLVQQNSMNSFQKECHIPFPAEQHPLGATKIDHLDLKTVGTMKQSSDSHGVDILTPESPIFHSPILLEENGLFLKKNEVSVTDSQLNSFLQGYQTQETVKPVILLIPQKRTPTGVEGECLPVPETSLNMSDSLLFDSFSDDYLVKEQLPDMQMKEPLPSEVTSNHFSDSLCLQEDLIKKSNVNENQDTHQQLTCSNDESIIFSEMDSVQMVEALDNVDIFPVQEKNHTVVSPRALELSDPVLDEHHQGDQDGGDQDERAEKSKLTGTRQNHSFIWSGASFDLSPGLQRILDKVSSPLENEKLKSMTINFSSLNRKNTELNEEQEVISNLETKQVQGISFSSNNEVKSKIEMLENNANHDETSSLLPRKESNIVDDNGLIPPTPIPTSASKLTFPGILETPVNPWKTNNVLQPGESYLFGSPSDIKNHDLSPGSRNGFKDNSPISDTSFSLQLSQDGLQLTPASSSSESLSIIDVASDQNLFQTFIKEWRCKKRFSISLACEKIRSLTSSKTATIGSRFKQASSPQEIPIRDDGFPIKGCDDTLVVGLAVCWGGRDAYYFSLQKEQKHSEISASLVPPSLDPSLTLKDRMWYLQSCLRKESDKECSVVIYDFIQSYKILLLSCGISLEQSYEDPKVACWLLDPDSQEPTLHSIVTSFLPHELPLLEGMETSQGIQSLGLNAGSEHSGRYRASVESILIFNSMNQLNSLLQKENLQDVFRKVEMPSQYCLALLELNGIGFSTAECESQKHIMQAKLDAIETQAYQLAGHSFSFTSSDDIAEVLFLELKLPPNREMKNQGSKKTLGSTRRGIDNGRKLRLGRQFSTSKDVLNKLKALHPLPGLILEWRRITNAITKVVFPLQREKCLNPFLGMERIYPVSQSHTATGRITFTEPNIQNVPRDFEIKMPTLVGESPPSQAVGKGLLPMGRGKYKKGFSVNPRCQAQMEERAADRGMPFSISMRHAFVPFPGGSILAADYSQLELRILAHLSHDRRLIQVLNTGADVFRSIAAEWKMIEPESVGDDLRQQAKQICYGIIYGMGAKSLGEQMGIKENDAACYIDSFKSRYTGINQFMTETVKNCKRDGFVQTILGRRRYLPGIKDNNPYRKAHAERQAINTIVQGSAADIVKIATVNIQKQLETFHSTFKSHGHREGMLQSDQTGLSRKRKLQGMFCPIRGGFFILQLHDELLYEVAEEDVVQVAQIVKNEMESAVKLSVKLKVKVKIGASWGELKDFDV
Effect on: enzyme activity
Mode: inhibitor
Tested at: 77 µM
Reference: untreated
The remaining activity of O=C1CC[C@@H](C(=O)N2CSC[C@H]2C(=O)O)N1 is reported as 99.4%.
Cc1ccc2c(Cl)cc(Cl)c(O)c2n1 has a remaining activity of 108%.
CN1CCC[C@@H]1Cc1c[nH]c2ccc(CCS(=O)(=O)c3ccccc3)cc12 gave a remaining activity of 108%.
For O=C(Nc1cccc(Cl)c1)Nc1ncc(CCNc2ncnc3ccsc23)s1, the remaining activity was 83.8%.
The remaining activity of N#Cc1ccc(C(c2ccc(C#N)cc2)n2cncn2)cc1 is reported as 95.6% and 101%.
The remaining activity of CCN(CC)CCNC(=O)c1ccc(NS(C)(=O)=O)cc1 is reported as 114%.
The remaining activity of CC(C)[C@H](CO)Nc1nc(Nc2cc(N)cc(Cl)c2)c2ncn(C(C)C)c2n1 is reported as 92.3%.
CN1CCC(=C2c3ccccc3Sc3ccccc32)CC1 has a remaining activity of 103%.
For OCCN1CCN(CCCN2c3ccccc3C=Cc3ccccc32)CC1, the remaining activity was 128%.

Block 2
Target: Beta-1 adrenergic receptor (ADRB1, Homo sapiens, UniProt P08588)
Chain of UniProt P08588 (whole entry, looked up): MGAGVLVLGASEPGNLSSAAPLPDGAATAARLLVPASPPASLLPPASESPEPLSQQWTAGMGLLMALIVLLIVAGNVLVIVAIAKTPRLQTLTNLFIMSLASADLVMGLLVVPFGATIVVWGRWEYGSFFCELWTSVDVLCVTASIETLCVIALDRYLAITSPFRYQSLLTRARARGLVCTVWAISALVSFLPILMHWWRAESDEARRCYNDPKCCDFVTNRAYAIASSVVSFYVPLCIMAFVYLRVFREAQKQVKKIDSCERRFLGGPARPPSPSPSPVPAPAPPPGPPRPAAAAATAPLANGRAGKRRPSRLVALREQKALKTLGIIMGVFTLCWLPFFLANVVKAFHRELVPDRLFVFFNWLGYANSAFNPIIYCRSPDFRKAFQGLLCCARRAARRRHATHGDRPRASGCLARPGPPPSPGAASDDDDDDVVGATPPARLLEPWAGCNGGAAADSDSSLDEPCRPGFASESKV
Mode: agonist
COc1cc(F)ccc1-c1nc(N2CCOCC2)cc2c1CN(CC(F)(F)F)C2=O has an EC50 of no less than 100 µM.
With COc1cc(OC)c2c(OC)c(-c3ccc4c(c3)OCO4)c(=O)oc2c1 the EC50 was no less than 100 µM.
O=C(Nc1ccc([C@@H](O)[C@H]2COCC(=O)N2Cc2ccc(F)cc2)cc1)c1ccccc1 gave an EC50 of no less than 100 µM.
With Cn1cc(-c2cnc(Nc3cccnc3)c3c2CCO3)cn1 the EC50 was no less than 100 µM.
The EC50 of COc1ccccc1N1CCN(C(=O)c2cc(Br)cn2C(C)C)CC1 is reported as no less than 100 µM.
CC(O)CN1CCN(c2cnc3ccccc3n2)CC1C (centres unmarked) gave an EC50 of no less than 100 µM.
For COc1ccccc1NC(=O)c1sc2nc(C)c(C(=O)Nc3ccc(C)cc3C)c(-c3ccc(C)o3)c2c1N, the EC50 was no less than 100 µM.
The EC50 of c1ccc(OCC2CN(Cc3ccc4[nH]ccc4c3)CC23CN(c2ccccc2)C3)cc1 (centres unmarked) is reported as no less than 100 µM.
Cc1cc2c(F)c(Oc3ncnn4cc(OC[C@@H](C)OC(=O)[C@H](C)N)c(C)c34)ccc2[nH]1 has an EC50 of no less than 100 µM.
Cc1csc(-c2nnc(Nc3ccc(Oc4ncccc4-c4ccnc(N)n4)cc3)c3ccccc23)c1 gave an EC50 of no less than 100 µM.
For CCn1ccnc1CN(C)Cc1cccc(OCC(O)CN(C)C2CCCCC2)c1 (centres unmarked), the EC50 was no less than 100 µM.
With Clc1ccccc1-c1cc(C2CCN(Cc3cc4n(n3)CCNC4)CC2)[nH]n1 the EC50 was no less than 100 µM.
The EC50 of CCOc1ccccc1N1CCN(C(=O)C2CNCCO2)CC1 (centres unmarked) is reported as 15.8 µM.
CC(=O)N1CCN(c2ncccc2-c2cc(-c3ccccc3)nc3c(C)noc23)CC1 has an EC50 of no less than 100 µM.
With Cc1ccc(Sc2ccccc2N2CCNCC2)c(C)c1 the EC50 was no less than 100 µM.
COCCNCc1ccc(-c2cc3nccc(Oc4ccc(NC(=O)C5(C(=O)Nc6ccc(F)cc6)CC5)cc4F)c3s2)nc1 gave an EC50 of 14.1 µM.

Block 3
SMILES: CNCc1ccccc1-c1csc([C@H](C)Nc2nc(C)nc3cc(OC)c(OC)cc23)c1
Technique: competition with immobilised ligand
Tested at: 1 µM
The remaining binding was 93% (INSRR (Homo sapiens, UniProt P14616); cell-free assay).
For EPHA3 (Homo sapiens, UniProt P29320); cell-free assay: remaining binding read 100%.
For Tyrosine-protein kinase ABL1, non-phosphorylated (ABL1, Homo sapiens, UniProt P00519, F317I); binding: remaining binding read 100%.
TNIK (Homo sapiens, UniProt Q9UKE5); cell-free assay — remaining binding: 99%.
It gave 100% for remaining binding (FGR (Homo sapiens, UniProt P09769); cell-free assay).
The remaining binding was 76% (Tyrosine-protein kinase ABL1, non-phosphorylated (ABL1, Homo sapiens, UniProt P00519, Q252H); cell-free assay).
The remaining binding was 100% (PDPK1 (Homo sapiens, UniProt O15530); cell-free assay).
It gave 73% for remaining binding (STK33 (Homo sapiens, UniProt Q9BYT3); cell-free assay).
The remaining binding was 100% (STK17A (Homo sapiens, UniProt Q9UEE5); cell-free assay).
The remaining binding was 74% (MAPK10 (Homo sapiens, UniProt P53779); cell-free assay).
The remaining binding was 100% (CSK (Homo sapiens, UniProt P41240); cell-free assay).
It gave 100% for remaining binding (DAPK2 (Homo sapiens, UniProt Q9UIK4); cell-free assay).
It gave 100% for remaining binding (MAPK3 (Homo sapiens, UniProt P27361); cell-free assay).
For SBK3 (Homo sapiens, UniProt P0C264); cell-free assay: remaining binding read 100%.
For GRK7 (Homo sapiens, UniProt Q8WTQ7); cell-free assay: remaining binding read 89%.
The remaining binding was 97% (PIK3CA (Homo sapiens, UniProt P42336, E545A); cell-free assay).
TLK1 (Homo sapiens, UniProt Q9UKI8); cell-free assay — remaining binding: 100%.
It gave 84% for remaining binding (EGFR (Homo sapiens, UniProt P00533, G719S); cell-free assay).

Block 4
Target: Tyrosine-protein kinase SYK (SYK, Homo sapiens, UniProt P43405)
Effect on: enzyme activity
Mode: inhibitor
Tested at: 0.5 µM
Reference: control
The remaining activity of O=C(NC(NC(=S)Nc1ccc(F)c([N+](=O)[O-])c1)C(Cl)(Cl)Cl)C(c1ccccc1)c1ccccc1 (centres unmarked) is reported as 104%.
For Ic1cccc(CSc2nnc(-c3ccncc3)o2)c1, the remaining activity was 92.2%.
The remaining activity of N#C/C(=C\c1ccc(O)c(O)c1)C(=O)NCc1ccccc1 is reported as 116%.
With Cc1cc2ncc(-c3ccccc3)nc2cc1C the remaining activity was 97.4%.
The remaining activity of CCN(CC)CCNC(=O)c1c(C)[nH]c(/C=C2\C(=O)Nc3ccc(Cl)cc32)c1C is reported as 59.2%.
The remaining activity of O=c1cc(-c2cccc3c2Sc2ccccc2S3)oc(N2CCOCC2)c1 is reported as 106%.
For Cc1cn(-c2cc(NC(=O)c3ccc(C)c(Nc4nccc(-c5cccnc5)n4)c3)cc(C(F)(F)F)c2)cn1, the remaining activity was 110%.
c1ccc(-c2[nH]ncc2-c2ccnc3ccccc23)nc1 gave a remaining activity of 99.7%.
The remaining activity of c1ccc(-c2cnc(Nc3ccc(OCCN4CCCC4)cc3)s2)cc1 is reported as 89.2%.
With COc1cc2c(cc1OC)-c1[nH]nc(Nc3cccc(F)c3)c1C2 the remaining activity was 103%.
Cc1nc2cc3nc(-c4cccs4)cnc3cc2n1C has a remaining activity of 94.3%.
The remaining activity of CN(C)C[C@H]1CCn2c(c(C3=C(c4cn(C)c5ccccc45)C(=O)NC3=O)c3ccccc32)C1 is reported as 99.6%.
Nc1cccc(-c2cc3c(Oc4cccc(O)c4)ncnc3[nH]2)c1 has a remaining activity of 36.1%.
The remaining activity of CN([C@@H](Cc1ccc(OS(=O)(=O)c2cccc3cnccc23)cc1)C(=O)N1CCN(c2ccccc2)CC1)S(=O)(=O)c1cccc2cnccc12 is reported as 98.7%.
For COc1cc2ncnc(Nc3ccc(O)c(Br)c3)c2cc1OC, the remaining activity was 86.7%.
For O=C(Nc1cccc(Nc2nccc(Nc3cccc(C(F)(F)F)c3)n2)c1)C1CC1, the remaining activity was 101%.
The remaining activity of CCOc1nc(NC(=O)Cc2cc(OC)ccc2OC)cc(N)c1C#N is reported as 99.2%.
For N#Cc1c(NC(=O)c2cccc3ccccc23)sc2c1CCCC2, the remaining activity was 97.6%.
The remaining activity of O=C1C(Cl)=C(N2C(=O)CCC2=O)C(=O)c2ccccc21 is reported as 95.9%.
The remaining activity of COc1cc2ncnc(Nc3cccc(Cl)c3)c2cc1OC is reported as 86.9%.
CCN(CC)C(=O)c1ccc(Nc2nc(OCC3CCCCC3)c3[nH]cnc3n2)cc1 gave a remaining activity of 61.1%.
For Cn1nc2c3c(cccc31)C(=O)c1ccccc1-2, the remaining activity was 94.8%.

Some of these lines once more (block 4):
With Cc1cc2ncc(-c3ccccc3)nc2cc1C the remaining activity was 97.4%.
The remaining activity of CCN(CC)CCNC(=O)c1c(C)[nH]c(/C=C2\C(=O)Nc3ccc(Cl)cc32)c1C is reported as 59.2%.
The remaining activity of O=c1cc(-c2cccc3c2Sc2ccccc2S3)oc(N2CCOCC2)c1 is reported as 106%.
For Cc1cn(-c2cc(NC(=O)c3ccc(C)c(Nc4nccc(-c5cccnc5)n4)c3)cc(C(F)(F)F)c2)cn1, the remaining activity was 110%.
c1ccc(-c2[nH]ncc2-c2ccnc3ccccc23)nc1 gave a remaining activity of 99.7%.
The remaining activity of c1ccc(-c2cnc(Nc3ccc(OCCN4CCCC4)cc3)s2)cc1 is reported as 89.2%.
With COc1cc2c(cc1OC)-c1[nH]nc(Nc3cccc(F)c3)c1C2 the remaining activity was 103%.
